Experimental data from different studies.
A part holds a random share of what one study measured. Substitutions count along the parent as printed.

Set 1
Target: Hepatocyte nuclear factor 3-alpha (Foxa1, Mus musculus, UniProt P35582, residues 1-468, full length assumed)
Chain of UniProt P35582 (whole entry, looked up): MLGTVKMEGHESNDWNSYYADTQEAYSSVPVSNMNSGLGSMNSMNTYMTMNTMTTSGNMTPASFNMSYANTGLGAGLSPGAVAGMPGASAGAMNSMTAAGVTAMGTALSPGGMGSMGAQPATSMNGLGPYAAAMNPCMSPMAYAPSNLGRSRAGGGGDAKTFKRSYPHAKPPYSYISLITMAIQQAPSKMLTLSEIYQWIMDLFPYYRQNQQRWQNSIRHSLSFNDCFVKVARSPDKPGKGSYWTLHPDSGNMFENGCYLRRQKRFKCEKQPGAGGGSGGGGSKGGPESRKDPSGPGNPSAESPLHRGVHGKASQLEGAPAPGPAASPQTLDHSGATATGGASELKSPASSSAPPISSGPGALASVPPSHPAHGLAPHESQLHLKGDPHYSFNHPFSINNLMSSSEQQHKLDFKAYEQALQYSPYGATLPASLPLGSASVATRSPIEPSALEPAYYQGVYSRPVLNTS
Method: EMSA with sequencing
Form: double-stranded DNA, one strand shown
Sample: in vitro
Concentration: 10 and 20 nM
Setting: whole designed probe, mean of two concentrations, ends assumed
Baseline: negative control set to 0
Direction: higher = stronger binding
Strand	normalised bound fraction [ratio]
GTGAGCGGTGCCCATTGATGGGGAACAAAAATTTTAGTCTGGATTGATGTTAGGAAATACAATATCTAAGCAATTTGATGTTAAGTTCATCTTGACAGCTTTTAAGACAGAAAATATATGTTTACTTAGAAAATCAACAGAAAAAAATTGCTCTGTTTCTTATCTGACATGAGTCAAAACACGGAATTTTTATTTACATTAAGCTGTGAAATAAAACTGTTTCACTGGGATCGTGGGGAC	0.482
GTGAGCGGTGCCCATTGATGGGGAACATCTTCCCCCTCTTCCTTGCCCCACCAGCTCACCTTCCCGGGTTATTTGCACAAAGGAAAATAAATAAAGCCGGCATTCGTTAACGCAGTTCTGGCGCAAACTGCTGTTTGCTCTGGATGAATCATGGTCCTTTGGCGACGCCAGGCTCCGGGAGAGCAAAGCACCGTGTCAGGGCCATGATCCGGGCTCGCCTTTCACTGGGATCGTGGGGAC	0.377
GTGAGCGGTGCCCATTGATGGGGAACTTTCAGAGGACATCCTCTCCCCACCCAACCCCTACACCCGCCATGGCCCCAGGTTCATCTCTGCCGGCCCATATGACTCATTTGCTCTGGTGTGTTTACTCAGGCACCTGTTTACCCTCGTTTATGGCCGGCTTATTTATGGCTGGCTTCCAGGAACACAAGCTCCAGGAAGCGGTGGCCAAGAAAGTAGTGGTTTCACTGGGATCGTGGGGAC	0.443
GTGAGCGGTGCCCATTGATGGGGAACTTTTTTCTGTACAGGGAAAAATAGTGAATATTTCAAAATTGTGAAACAAAGAGTCTCTGTGGCAACTACTCATTAGTTGCATAACGACAATATGCAAACAAATGAGTGTGTCTGTGTTCCAATAAAACTGTATTTACAAAAGCAGAAGGCCACCCATGTGCCAATGTCCAAAGTTTCTCAACCAACCCCTGGTTTTCACTGGGATCGTGGGGAC	0.419

Set 2
Target: Histone acetyltransferase KAT6A, winged helix 1, GST fusion (KAT6A, Homo sapiens, UniProt Q92794, residues 1-85)
Method: protein binding microarray
Form: double-stranded DNA, one strand shown
Sample: in vitro
Concentration: not given
Setting: 8-mer, flanks averaged, mean of 2 arrays, mostly near background
Baseline: not given
Direction: higher = stronger binding
Target sequence (chain): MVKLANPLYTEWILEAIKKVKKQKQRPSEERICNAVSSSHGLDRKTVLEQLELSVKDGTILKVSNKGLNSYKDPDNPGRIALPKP
Strand	E-score
ATTGAGCG	0.0225
ACGTGGCG	0.205
AAAATTCT	0.0468
GACTAGAA	-0.152
ATACCGGC	0.343
ACGAGTAG	0.000985
ACAGCGCG	0.41
GTGGGATA	-0.0832
CCGTTGTA	0.116
CCGTCGCG	0.459
AAAAAATT	-0.00653
GATGACGA	-0.0261
CGCGACGC	0.429
AAGGCGCC	0.306
AGATATCA	-0.201
AAATTGTA	-0.137
ACCGTACG	0.354
AAAGGCTA	-0.128
CAACCATG	0.027
GAACTCCA	-0.209
ACTCGCGA	0.0678
GTGCGATA	0.0763
CTGCTCTA	-0.0303
CCGAGTAA	0.0249
GGGGCGGA	0.258

Set 3
Target: CCNF, cyclin fold, Cln2 fusion (human)
Method: yeast growth competition, sequencing
Sample: yeast
Setting: strong parent motif
Baseline: not given
Direction: higher = stronger binding
Starting sequence: CDKN1A docking peptide (human); SKACRRLFGPVDS
Substitution	normalised enrichment score
SKACHRLFGPVDS [R5H]	0.776
SKACARLFGPVDS [R5A]	0.588
SKACDRLFGPVDS [R5D]	-0.419
SKACRRLFSPVDS [G9S]	7.38
SKACTRLFGPVDS [R5T]	0.76
SKACRRGFGPVDS [L7G]	0.571
SKACRRLFNPVDS [G9N]	7.08
SKATRRLFGPVDS [C4T]	3.3
SKACRRWFGPVDS [L7W]	0.907
SKADRRLFGPVDS [C4D]	0.704
SKACRRLFGPWDS [V11W]	8.39
SKACRRLFGPVLS [D12L]	7
SKACRRLFGVVDS [P10V]	6.47
SKACRRLFGFVDS [P10F]	6.29
SKACRRLFGPVDA [S13A]	8.44
SKACRRLFGPNDS [V11N]	7.49

Set 4
Target: Fragile X messenger ribonucleoprotein 1, C-terminal low-complexity region (Fmr1, Mus musculus, UniProt P35922)
Method: RNA Bind-n-Seq
Form: RNA
Sample: in vitro
Concentration: 200 nM
Setting: whole 134-nt RNA, ends assumed
Together with: 150 mM KCl
Baseline: input library
Direction: higher = stronger binding
Shared flanks, not repeated: GGGAGUUCUACAGUCCGACGAUC … UGGAAUUCUCGGGUGUCAAGG
Strand	log2 enrichment
AAGUCCUGUGCUACACAUCGUAUGUACCGAAUCGGCCCCGGCCCCGGGGCCCCGGGAAAGUAUUAUGUUACGCCGUUCGGAUCUGCACUU	-1.11
AAGUCCUGUGCUACACAUCGUAUGUACCGAAUCGGGCCCCGGGCCCCGGCCCCGGGGAAAGUAUUAUGUUACGCCGUUCGGAUCUGCACU	-0.86
AGUCCUGUGCUACACAUCGUAUGUACCGAAUCGGGAGGGAAAAAGGGUUUUUUUGGGAAAGUAUUAUGUUACGCCGUUCGGAUCUGCACU	0.416
AGUCCUGUGCUACACAUCGUAUGUACCGAAUCAAAUUUAAACCCCCAAAUUUUUAAAAAAGUAUUAUGUUACGCCGUUCGGAUCUGCACU	0.086
UCAAGUCCUGUGCUACACAUCGUAUGUACCGAAUCGGGAAAGGAAAGGAAAGGGAAAGUAUUAUGUUACGCCGUUCGGAUCUGCACUUCC	-0.49
GCAAGAAGUAAAAACAAAUGGAAAUGCUUCGGAUAGUGGCAGGGGUGGGGGUUGCUAAGGAAAGGGUGGGAUGGGAGUGGGUAAAGAGUU	0.26
CCUCAAGUCCUGUGCUACACAUCGUAUGUACCGAAUCGGCCGGGCCGGGCCGGAAAGUAUUAUGUUACGCCGUUCGGAUCUGCACUUCCA	-0.226
AGUCCUGUGCUACACAUCGUAUGUACCGAAUCGGGUUUUUGGGAAAGGGUUUUUGGGAAAGUAUUAUGUUACGCCGUUCGGAUCUGCACU	0.241
UUCUUGCCAGAGACGAAGAAGCGCAAGAAACGCAAGUCAGAGGAUGGCACGCCAGCGGAGGAUGGCACACCUGCAGCCACCGGCGGGAGC	-1.3
ACCAUGCAGGUGGGCAUCUUUGGGAAGUGGGGCAAGGGCGGGAUAGGGAGGGGGGUAACACUUUGGGAACAGGUGGUCCCAGGUCGUUUC	0.582
UAACUUUAGAGGAGGAUCUGAUGGAUAUGGCAGUGGCCGUGGAUUUGGGGAUGGCUAUAAUGGGUAUGGAGGAGGACCUGGAGGUGGCAA	0.201

Set 5
Target: RNA binding protein fox-1 homolog 2, RRM domain, GST-SBP tag (RBFOX2, Homo sapiens, UniProt O43251-10, residues 100-194)
Method: RNA Bind-n-Seq
Form: RNA
Sample: in vitro
Concentration: 365 nM
Setting: natural RNA segment, single round, ends assumed
Baseline: no-protein control
Direction: higher = stronger binding
Shared flanks, not repeated: GGGAGUUCUACAGUCCGACGAUC … UGGAAUUCUCGGGUGCCAA
Target sequence (chain): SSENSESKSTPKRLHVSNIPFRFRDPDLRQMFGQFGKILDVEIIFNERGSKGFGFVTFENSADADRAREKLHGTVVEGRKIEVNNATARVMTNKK
Strand	RBNS enrichment (R)
CCGGUGUGGACACGUGCUGGUUAAGCACUCAGGCCUACGUGGGCCGAGCGGGAUCUUGAUCAUGGGGCUGGUGUAUGGAUCCACCGUCGGAUUCCGUCUGCAGAGGAGGA	2.19
AGAUUGAAUAGGGUAAAAGAAAGUCUUUAAAUGCUAUCGCAUCCUAGACCCUCUUCCCACCUACUAUGGCAUUGCAUAUUAGUCUGUUGAGACAUUCAUUGUUGCUUGAC	0.317
CCACGGCUGGACAGCUGUUCUCUCCUCCUAUCCCACCGCUUCCCCUAAUAAAGGGACUGUUCUUUUGUUGCCUUGCUGUUUUUCCUUUACUAGUGGGCAGCUGCCGGGGG	2.52
ACCAUCCCCGGGGCCAGCCGGGACGUUGUCGGUUUAUUUCUGUAAAUAGAAACCAGCAAGUGUAUACUGUGAUUUAUUUUAAUGUAUUCUUAAGGACAGAAUGGAAAUUC	1.1
UGCUAUAAAAUGGACGCUAAACUAUGAAAACAGUGUGACAUUGUUCUCUGUUCUUCCAGAGCCAGUAACAUGCUUGCUCGUGCUUUCUACUUCUAGCUGAUCAUUCUUUU	0.284
AUAUUUAAUUAAGGGACUAGUUGAGAUAGUUCAUGCAAAAGCACCAGAAAACUUAAAACAGGGUUCUCUGGGGCUGGAAGCCAGAUUAGGGACAGGGCCUUUUCAUUAAU	0.401
CUUGAAUAAGCUGCUGCUUACCCCACUGAGCCUCAGUUUUUCCUAUGUAAGAGUGAUAUAAAACCUACCUCUGAGGUCAUUUAAUAAUAAGCACAGACAUGUGGAAAGUG	0.403
CAUCCCAACCAGAGAUGGCUCACUUCGGAUCGAGGGUUGACUACAUCUCAUCAUCUCACGAAUCUGCUGUAAUAUAAGACAACAGCUUUUAAAUGUGUAUAUAACCCAUG	0.257
AAGAGUAAGCCUGGAAAAUCUCACUUGUUUUCGUAGUAUUGGCUGUAUUUCAGUGCCUCCAGCUUUGCACUUGAGAGACAAGUGUUUACUGCUGUUUGACUUUCCCCUUG	0.673
UUUUCCAUGGGGCACUCACUCAGAAUAUUACAAGCCAUUUUAUUGCCAAAACCAGCAAGUACACCGAAUCCUGAGACAAGGCAGUUCUUGUGACAGUGCCUUGGCCUCCU	0.547
GCAUUUCUGUUCACUAACCCCACUCCAGGACACUGCCCCUGAAGCCUUUGCAUCUCUGCUCUUCACUCCUGGGGGGCAGCUGAGCUCCCCGCGUGCUGUGUCACUGCUUU	1.59
GGUCAUUUUCUGAUUCUUGUUGUUGGGAGUCAAUAUAGCAUGCGUCACCAGUGUUUGGUACCCAAGUCGUUCCAGUGGGAACAAUGUCUGUUUGAGUAAACUAAGACUGA	13.6

Repeated from above (set 5):
Strand	RBNS enrichment (R)
GGUCAUUUUCUGAUUCUUGUUGUUGGGAGUCAAUAUAGCAUGCGUCACCAGUGUUUGGUACCCAAGUCGUUCCAGUGGGAACAAUGUCUGUUUGAGUAAACUAAGACUGA	13.6
CCGGUGUGGACACGUGCUGGUUAAGCACUCAGGCCUACGUGGGCCGAGCGGGAUCUUGAUCAUGGGGCUGGUGUAUGGAUCCACCGUCGGAUUCCGUCUGCAGAGGAGGA	2.19
GCAUUUCUGUUCACUAACCCCACUCCAGGACACUGCCCCUGAAGCCUUUGCAUCUCUGCUCUUCACUCCUGGGGGGCAGCUGAGCUCCCCGCGUGCUGUGUCACUGCUUU	1.59
UGCUAUAAAAUGGACGCUAAACUAUGAAAACAGUGUGACAUUGUUCUCUGUUCUUCCAGAGCCAGUAACAUGCUUGCUCGUGCUUUCUACUUCUAGCUGAUCAUUCUUUU	0.284
AGAUUGAAUAGGGUAAAAGAAAGUCUUUAAAUGCUAUCGCAUCCUAGACCCUCUUCCCACCUACUAUGGCAUUGCAUAUUAGUCUGUUGAGACAUUCAUUGUUGCUUGAC	0.317
UUUUCCAUGGGGCACUCACUCAGAAUAUUACAAGCCAUUUUAUUGCCAAAACCAGCAAGUACACCGAAUCCUGAGACAAGGCAGUUCUUGUGACAGUGCCUUGGCCUCCU	0.547
